Measurements of several laboratories.
A part holds a random share of what one study measured.
UniProt O60674, sequence (whole entry, looked up): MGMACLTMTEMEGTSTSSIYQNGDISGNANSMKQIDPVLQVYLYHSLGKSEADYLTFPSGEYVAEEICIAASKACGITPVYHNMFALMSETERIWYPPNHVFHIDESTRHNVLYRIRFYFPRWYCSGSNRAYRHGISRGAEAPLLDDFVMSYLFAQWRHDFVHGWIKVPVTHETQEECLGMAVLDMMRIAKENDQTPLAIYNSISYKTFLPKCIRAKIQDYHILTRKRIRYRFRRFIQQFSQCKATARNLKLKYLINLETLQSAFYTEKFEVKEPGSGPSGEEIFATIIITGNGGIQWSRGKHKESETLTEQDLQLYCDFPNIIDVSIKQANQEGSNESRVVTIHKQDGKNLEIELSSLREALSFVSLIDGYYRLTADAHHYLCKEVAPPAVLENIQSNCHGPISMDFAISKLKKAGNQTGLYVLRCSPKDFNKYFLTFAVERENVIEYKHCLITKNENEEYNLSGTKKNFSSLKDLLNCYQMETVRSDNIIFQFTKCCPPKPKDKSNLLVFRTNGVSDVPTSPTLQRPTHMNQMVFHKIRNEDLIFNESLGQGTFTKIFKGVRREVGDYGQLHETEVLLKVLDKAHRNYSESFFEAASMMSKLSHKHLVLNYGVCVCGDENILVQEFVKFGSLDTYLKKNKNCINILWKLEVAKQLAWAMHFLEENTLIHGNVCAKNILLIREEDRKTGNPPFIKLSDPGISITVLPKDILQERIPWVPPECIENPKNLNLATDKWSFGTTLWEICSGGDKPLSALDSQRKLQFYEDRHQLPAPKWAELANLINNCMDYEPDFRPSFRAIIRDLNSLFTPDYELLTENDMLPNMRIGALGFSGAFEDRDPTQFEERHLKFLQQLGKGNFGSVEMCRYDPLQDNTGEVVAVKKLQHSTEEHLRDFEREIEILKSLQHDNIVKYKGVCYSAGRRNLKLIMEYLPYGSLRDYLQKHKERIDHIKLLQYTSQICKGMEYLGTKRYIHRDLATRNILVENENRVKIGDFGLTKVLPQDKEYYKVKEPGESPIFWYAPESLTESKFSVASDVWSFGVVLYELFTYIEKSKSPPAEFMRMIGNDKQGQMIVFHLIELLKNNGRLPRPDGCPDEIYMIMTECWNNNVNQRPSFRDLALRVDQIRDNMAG
UniProt P42336, sequence (whole entry, unmodified, looked up): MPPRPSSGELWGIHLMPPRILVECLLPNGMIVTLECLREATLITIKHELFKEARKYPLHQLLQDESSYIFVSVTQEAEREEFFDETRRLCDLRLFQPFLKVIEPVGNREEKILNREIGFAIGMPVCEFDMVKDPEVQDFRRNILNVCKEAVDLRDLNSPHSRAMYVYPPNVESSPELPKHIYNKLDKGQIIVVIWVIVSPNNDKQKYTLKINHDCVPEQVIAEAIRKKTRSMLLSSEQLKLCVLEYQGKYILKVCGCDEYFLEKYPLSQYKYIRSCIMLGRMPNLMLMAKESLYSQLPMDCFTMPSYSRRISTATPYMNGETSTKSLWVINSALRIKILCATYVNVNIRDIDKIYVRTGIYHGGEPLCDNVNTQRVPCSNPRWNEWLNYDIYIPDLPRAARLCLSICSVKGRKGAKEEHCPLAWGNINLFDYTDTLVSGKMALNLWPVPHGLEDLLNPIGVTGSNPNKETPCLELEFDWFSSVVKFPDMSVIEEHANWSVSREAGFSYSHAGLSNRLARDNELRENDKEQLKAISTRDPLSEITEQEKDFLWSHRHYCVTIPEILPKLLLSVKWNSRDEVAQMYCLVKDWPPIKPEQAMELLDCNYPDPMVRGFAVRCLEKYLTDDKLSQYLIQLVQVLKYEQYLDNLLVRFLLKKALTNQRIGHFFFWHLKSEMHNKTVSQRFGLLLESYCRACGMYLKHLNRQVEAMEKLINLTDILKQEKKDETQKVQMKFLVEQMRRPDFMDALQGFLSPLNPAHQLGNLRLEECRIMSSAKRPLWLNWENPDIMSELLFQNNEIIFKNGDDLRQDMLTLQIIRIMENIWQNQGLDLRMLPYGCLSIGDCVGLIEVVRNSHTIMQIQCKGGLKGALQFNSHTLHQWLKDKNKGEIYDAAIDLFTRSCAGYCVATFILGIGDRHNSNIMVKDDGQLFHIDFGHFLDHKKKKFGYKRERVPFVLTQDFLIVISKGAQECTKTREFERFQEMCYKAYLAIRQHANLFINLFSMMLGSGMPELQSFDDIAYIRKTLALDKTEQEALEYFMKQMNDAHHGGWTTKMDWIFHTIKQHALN
UniProt Q13882, sequence (whole entry, looked up): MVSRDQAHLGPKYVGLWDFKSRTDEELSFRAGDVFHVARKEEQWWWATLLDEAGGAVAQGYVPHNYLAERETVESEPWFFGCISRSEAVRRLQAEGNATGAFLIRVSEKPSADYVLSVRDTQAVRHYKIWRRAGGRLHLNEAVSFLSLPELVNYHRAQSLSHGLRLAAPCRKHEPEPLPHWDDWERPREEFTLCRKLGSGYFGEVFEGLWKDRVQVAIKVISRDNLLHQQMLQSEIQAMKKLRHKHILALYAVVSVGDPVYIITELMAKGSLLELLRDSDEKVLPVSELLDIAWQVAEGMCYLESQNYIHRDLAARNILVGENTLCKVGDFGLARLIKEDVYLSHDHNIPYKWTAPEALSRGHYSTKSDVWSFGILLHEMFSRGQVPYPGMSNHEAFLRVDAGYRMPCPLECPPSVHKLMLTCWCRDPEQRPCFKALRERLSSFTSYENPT
UniProt O75747, sequence (whole entry, looked up): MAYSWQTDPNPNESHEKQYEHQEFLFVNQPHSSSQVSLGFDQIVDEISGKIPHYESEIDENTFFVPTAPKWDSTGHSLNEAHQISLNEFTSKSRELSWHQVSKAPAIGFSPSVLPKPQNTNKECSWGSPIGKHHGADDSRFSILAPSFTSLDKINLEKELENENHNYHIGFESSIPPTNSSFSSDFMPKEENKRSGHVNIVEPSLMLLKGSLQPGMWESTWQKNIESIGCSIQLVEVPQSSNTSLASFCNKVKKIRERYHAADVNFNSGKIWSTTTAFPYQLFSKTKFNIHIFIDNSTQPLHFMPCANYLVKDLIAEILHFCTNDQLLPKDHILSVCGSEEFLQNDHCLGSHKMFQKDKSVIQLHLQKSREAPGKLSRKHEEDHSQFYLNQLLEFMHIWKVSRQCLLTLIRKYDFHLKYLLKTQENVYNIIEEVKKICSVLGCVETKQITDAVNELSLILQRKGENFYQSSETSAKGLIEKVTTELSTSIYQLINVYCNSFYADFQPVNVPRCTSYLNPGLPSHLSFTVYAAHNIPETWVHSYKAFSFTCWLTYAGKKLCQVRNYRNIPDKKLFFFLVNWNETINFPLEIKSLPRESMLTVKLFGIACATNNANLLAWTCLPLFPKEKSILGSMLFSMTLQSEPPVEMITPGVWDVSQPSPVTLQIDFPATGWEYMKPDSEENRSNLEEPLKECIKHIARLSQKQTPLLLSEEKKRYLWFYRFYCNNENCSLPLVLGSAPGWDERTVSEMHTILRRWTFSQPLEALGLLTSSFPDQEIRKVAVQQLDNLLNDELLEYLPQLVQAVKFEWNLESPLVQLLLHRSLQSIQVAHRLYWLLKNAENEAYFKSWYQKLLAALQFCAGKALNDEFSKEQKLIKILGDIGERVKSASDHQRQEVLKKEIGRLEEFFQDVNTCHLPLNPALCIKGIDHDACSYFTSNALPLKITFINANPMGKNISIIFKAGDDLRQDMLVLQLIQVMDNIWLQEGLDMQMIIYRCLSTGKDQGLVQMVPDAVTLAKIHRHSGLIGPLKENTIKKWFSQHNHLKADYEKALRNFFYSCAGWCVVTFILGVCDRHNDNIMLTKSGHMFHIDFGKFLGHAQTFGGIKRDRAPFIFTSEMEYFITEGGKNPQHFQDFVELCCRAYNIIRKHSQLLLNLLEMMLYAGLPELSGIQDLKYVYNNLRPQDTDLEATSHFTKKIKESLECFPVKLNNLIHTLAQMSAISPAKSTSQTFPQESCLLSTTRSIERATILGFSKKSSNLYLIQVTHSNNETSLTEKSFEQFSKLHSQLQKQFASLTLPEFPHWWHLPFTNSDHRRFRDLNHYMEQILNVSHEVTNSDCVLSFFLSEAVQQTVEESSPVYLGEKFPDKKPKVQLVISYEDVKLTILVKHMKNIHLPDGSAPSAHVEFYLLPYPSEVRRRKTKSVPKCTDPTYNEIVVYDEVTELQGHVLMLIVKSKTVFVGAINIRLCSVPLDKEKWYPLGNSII

Set 1
Structure (SMILES): CCCCC(=O)Nc1ccc(-c2ccc3ncn(CCC)c(=O)c3c2)cn1
Effect on: binding
Technique: competition with immobilised ligand
Tested at: 0.5 µM
Endpoint: remaining binding
target = Phosphatidylinositol 4,5-bisphosphate 3-kinase catalytic subunit alpha isoform (PIK3CA, Homo sapiens, UniProt P42336); result = 100%
target = Receptor-type tyrosine-protein kinase FLT3 (FLT3, Homo sapiens, UniProt P36888, D835H); result = 100%
target = Phosphatidylinositol 3-kinase C2 domain-containing subunit gamma (PIK3C2G, Homo sapiens, UniProt O75747); result = 58%
target = Phosphatidylinositol 4,5-bisphosphate 3-kinase catalytic subunit alpha isoform (PIK3CA, Homo sapiens, UniProt P42336, I800L); result = 66%

Further values, each from its own experiment
Tested at: 1 µM
Compound = C=CC(=O)N1CCC(COCC(=O)N2CCN(c3nc(-c4cnc(N)nc4C(F)F)nc(N4CCOC[C@@H]4C)n3)CC2)CC1; target = Protein-tyrosine kinase 6 (PTK6, Homo sapiens, UniProt Q13882); effect on = binding; technique = competition with immobilised ligand; endpoint = remaining binding; result = 97%
Compound = CNc1ncc2c(/C=C/C(=O)N3CCC(OC)CC3)nn(Cc3cccc(C(F)(F)F)c3)c2n1; target = Tyrosine-protein kinase BTK (BTK, Homo sapiens, UniProt Q06187); effect on = enzyme activity; action = inhibitor; technique = radiometric; endpoint = remaining activity; result = 76%
Compound = COc1cc(-c2cncc3c2CN(C)Cc2cc(N4CCNCC4)ccc2-3)cc(OC)c1OC; target = Tyrosine-protein kinase JAK2 (JAK2, Homo sapiens, UniProt O60674); effect on = enzyme activity; action = inhibitor; endpoint = remaining activity; result = 106%
Compound = Cc1cc([C@@H](C)Nc2ccccc2C(=O)O)c2nc(N3CCC(F)(F)CC3)c(C#N)c(=O)n2c1; target = Tyrosine-protein kinase JAK2, JH1 (JAK2, Homo sapiens, UniProt O60674); effect on = binding; technique = competition with immobilised ligand; endpoint = remaining binding; result = 100%

Some of these lines once more (set 1):
target = Receptor-type tyrosine-protein kinase FLT3 (FLT3, Homo sapiens, UniProt P36888, D835H); result = 100%
